Published values collected from several papers.
Protocols differ between the studies behind these lines. ± gives the spread as reported.

SMILES | assay | system | setting | endpoint | value
C[C@@H]1CCO[C@H]2Cn3cc(C(=O)NCc4ccc(F)cc4F)c(=O)c(O)c3C(=O)N12 | population PK model | children | – | apparent clearance (CL/F) | 1.03 L/h
O=C(c1cccnc1-c1ccncc1)N1CCC(O)(Cc2ccccc2)CC1 | population PK model | healthy adults | oral, 300 mg | apparent oral clearance | 204 L/h
CC#CC(=O)N1CCC[C@H]1c1nc(-c2ccc(C(=O)Nc3ccccn3)cc2)c2c(N)nccn12 | population pharmacokinetics | healthy subjects | – | apparent clearance (CL/F) | 196 L/h
N[C@@H](CC(=O)N1CCc2c(nc(C(F)(F)F)nc2C(F)(F)F)C1)CN1CC(F)(F)CCC1=O | – | healthy Korean adults, fasted, plasma | oral, 50 mg single dose, separate tablets, with: enavogliflozin 0.3 mg | apparent volume Vd/F | 965 ± 191 L
Cc1c(C(=O)O)ccc2c3n(nc12)[C@@H]1[C@H](C3)N(CC2CC2)[C@@]2(C(=O)Nc3cc(Cl)ccc32)[C@H]1c1cccc(Cl)c1F | – | cancer patients, plasma | oral, 45 mg every 3 weeks, geometric mean | apparent clearance CL/F | 7.34 mL/min
CCCCCCCCCCCCCCCC(=O)N[C@@H](CCC(=O)NCCCC[C@H](NC(=O)[C@H](C)NC(=O)[C@H](C)NC(=O)[C@H](CCC(N)=O)NC(=O)CNC(=O)[C@H](CCC(=O)O)NC(=O)[C@H](CC(C)C)NC(=O)[C@H](Cc1ccc(O)cc1)NC(=O)[C@H](CO)NC(=O)[C@H](CO)NC(=O)[C@@H](NC(=O)[C@H](CC(=O)O)NC(=O)[C@H](CO)NC(=O)[C@@H](NC(=O)[C@H](Cc1ccccc1)NC(=O)[C@@H](NC(=O)CNC(=O)[C@H](CCC(=O)O)NC(=O)[C@H](C)NC(=O)[C@@H](N)Cc1cnc[nH]1)[C@@H](C)O)[C@@H](C)O)C(C)C)C(=O)N[C@@H](CCC(=O)O)C(=O)N[C@@H](Cc1ccccc1)C(=O)N[C@H](C(=O)N[C@@H](C)C(=O)N[C@@H](Cc1c[nH]c2ccccc12)C(=O)N[C@@H](CC(C)C)C(=O)N[C@H](C(=O)N[C@@H](CCCNC(=N)N)C(=O)NCC(=O)N[C@@H](CCCNC(=N)N)C(=O)NCC(=O)O)C(C)C)[C@@H](C)CC)C(=O)O | population PK, base model | adult and pediatric type 2 diabetes, plasma | subcutaneous, dose not given | apparent volume of distribution (V/F) | 18.1 L
C=CC(=O)NC1CCN(c2ncc3ncnc(Nc4ccc(Oc5ccc6c(c5)ncn6C)c(C)c4)c3n2)CC1 | – | healthy male volunteers, plasma | oral, 60 mg, unlabelled tablet | apparent volume of distribution Vz/F | 545 L
CO[C@H]1CC[C@H](N2C(=O)CNc3ncc(-c4ccc(C(C)(C)O)nc4)nc32)CC1 | – | patients, plasma | 15 mg, day 15 | apparent clearance (CL/F) | 39.2 L/h
O=C(O)c1cccc(C(=O)O)c1 | – | betaine/glycerol DES-water | DES mass fraction 0.40 | apparent dissolution enthalpy | 12.5 kJ/mol
CN1CC[C@@H](NC(=O)Nc2ccc(C#N)cc2)C[C@@H]1c1nc2ccccc2[nH]1 | population PK model | cancer patients | oral | apparent clearance | 5.77 L/h
OC[C@H]1O[C@@H](c2cc(Cc3ccc(C4CC4)cc3)c(Cl)c3c2CCO3)[C@H](O)[C@@H](O)[C@@H]1O | – | healthy Korean adults, fasted, plasma | oral, 0.3 mg single dose, fixed-dose combination tablet, with: co-administered drug 50 mg | apparent volume Vd/F | 143 ± 30.5 L
CC1(C)CCC(CN2CCN(c3ccc(C(=O)NS(=O)(=O)c4ccc(NCC5CCOCC5)c([N+](=O)[O-])c4)c(Oc4cnc5[nH]ccc5c4)c3)CC2)=C(c2ccc(Cl)cc2)C1 | final population PK model | AML patients, plasma | oral, dose not given | apparent peripheral volume (V3/F) | 115 L
COc1cc(N2CCC(N3CCN(C)CC3)CC2)ccc1Nc1ncc(Cl)c(Nc2ccccc2P(C)(C)=O)n1 | – | healthy subjects | oral | apparent oral clearance | 13.5 L/h
Cc1cc(/C=C/C#N)cc(C)c1Nc1ccnc(Nc2ccc(C#N)cc2)n1 | – | octanol-water | room temperature | apparent logP | 1.22 ± 0.25
CNC(=O)c1c(C)oc2cc(Oc3ncnc4cc(OC)c(OC)cc34)ccc12 | final population PK model | cancer patients | 73 kg body weight, no PPIs | apparent clearance (CL/F) | 0.808 L/h
COc1cc(Nc2ncc3c(n2)-c2ccc(Cl)cc2C(c2c(F)cccc2OC)=NC3)ccc1C(=O)O | population PK modelling | cancer patients, plasma | oral, dose not given | apparent central volume (V1/F) | 51.8 L
